{"data": "Published values from different studies", "note": "Parts stem from different laboratories: compare values within a part only. pIC50: −log10 of the molar value.", "chain of UniProt P31749 (whole entry, looked up)": "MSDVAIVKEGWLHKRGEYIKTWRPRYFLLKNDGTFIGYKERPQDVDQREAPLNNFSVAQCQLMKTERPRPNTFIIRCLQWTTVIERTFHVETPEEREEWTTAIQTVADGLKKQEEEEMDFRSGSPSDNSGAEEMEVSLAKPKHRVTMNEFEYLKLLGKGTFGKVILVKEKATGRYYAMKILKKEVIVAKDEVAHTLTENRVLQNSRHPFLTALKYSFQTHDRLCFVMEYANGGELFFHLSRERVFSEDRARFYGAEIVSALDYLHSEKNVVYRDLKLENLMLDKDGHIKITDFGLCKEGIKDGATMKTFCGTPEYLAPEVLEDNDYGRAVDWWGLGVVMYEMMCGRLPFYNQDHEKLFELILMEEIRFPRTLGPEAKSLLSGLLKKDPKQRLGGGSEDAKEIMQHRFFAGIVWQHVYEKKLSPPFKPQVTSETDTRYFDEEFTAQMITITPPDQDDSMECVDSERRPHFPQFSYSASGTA"}
{"data": "Block 1", "cell line": "HaCaT", "tested at": "100 µM", "time": "36 h"}
{"SMILES": "COc1ccc(C(CN(C)C)C2(O)CCCCC2)cc1 (stereo not drawn)", "viability [%]": 78.1}
{"SMILES": "O=P1(NCCCl)OCCCN1CCCl (stereo not drawn)", "viability [%]": 93.1}
{"SMILES": "CC(CCc1ccccc1)NC(C)C(O)c1ccc(O)cc1 (stereo not drawn)", "viability [%]": 90.5}
{"data": "Block 2", "target": "Beta-1 adrenergic receptor (ADRB1, Homo sapiens, UniProt P08588)", "action": "antagonist", "chain of UniProt P08588 (whole entry, looked up)": "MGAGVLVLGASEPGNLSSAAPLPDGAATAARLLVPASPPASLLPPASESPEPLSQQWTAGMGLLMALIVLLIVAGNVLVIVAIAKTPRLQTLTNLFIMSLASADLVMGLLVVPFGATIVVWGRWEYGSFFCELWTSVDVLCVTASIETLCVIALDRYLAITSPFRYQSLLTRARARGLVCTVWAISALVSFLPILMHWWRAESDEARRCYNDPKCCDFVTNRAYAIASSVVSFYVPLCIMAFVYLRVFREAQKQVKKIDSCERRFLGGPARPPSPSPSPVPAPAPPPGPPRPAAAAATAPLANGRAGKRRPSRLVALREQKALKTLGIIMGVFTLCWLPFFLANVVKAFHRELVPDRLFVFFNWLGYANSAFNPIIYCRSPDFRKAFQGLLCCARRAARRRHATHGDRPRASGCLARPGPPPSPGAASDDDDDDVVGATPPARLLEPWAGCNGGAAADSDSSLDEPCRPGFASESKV"}
{"Structure (SMILES)": "Cc1ccc(CNCCc2c[nH]c3ccccc23)cc1", "pIC50": "≤ 4.00"}
{"Structure (SMILES)": "NCCc1cc(=O)oc2cc(O)c(Cl)cc12", "pIC50": "≤ 4.00"}
{"Structure (SMILES)": "CC(Cc1ccncc1)NCc1ccc(OCC(=O)N2CCOCC2)cc1 (stereo not drawn)", "pIC50": 4.95}
{"Structure (SMILES)": "Clc1ccccc1COc1cccc(N2CCNCC2)c1", "pIC50": 5.05}
{"data": "Other studies, line by line", "pknB": "Serine/threonine-protein kinase PknB (pknB, Mycobacterium tuberculosis, UniProt P9WI81)", "chain of UniProt P9WI81 (whole entry, looked up)": "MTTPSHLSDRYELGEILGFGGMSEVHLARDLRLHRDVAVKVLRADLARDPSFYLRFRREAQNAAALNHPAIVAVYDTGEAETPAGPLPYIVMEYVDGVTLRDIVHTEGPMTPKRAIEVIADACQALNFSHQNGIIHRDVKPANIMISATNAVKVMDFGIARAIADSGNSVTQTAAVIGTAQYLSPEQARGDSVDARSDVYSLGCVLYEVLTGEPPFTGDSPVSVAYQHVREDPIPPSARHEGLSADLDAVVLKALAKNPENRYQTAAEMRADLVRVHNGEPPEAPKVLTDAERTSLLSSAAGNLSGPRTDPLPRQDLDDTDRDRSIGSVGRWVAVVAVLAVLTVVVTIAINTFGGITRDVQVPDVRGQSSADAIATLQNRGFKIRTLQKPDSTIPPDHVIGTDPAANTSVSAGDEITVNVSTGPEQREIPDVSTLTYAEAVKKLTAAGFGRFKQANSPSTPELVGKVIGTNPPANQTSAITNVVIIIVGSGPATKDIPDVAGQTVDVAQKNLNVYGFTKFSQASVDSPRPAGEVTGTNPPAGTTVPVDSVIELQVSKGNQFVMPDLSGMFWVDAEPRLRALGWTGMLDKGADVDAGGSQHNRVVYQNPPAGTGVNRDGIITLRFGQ"}
{"SMILES": "C=CC(=O)Nc1ccc2[nH]c(=O)n(C3CCN(Cc4ccc(-c5ccc6c(c5)NC(=O)CO6)cc4)CC3)c2c1", "target or system": "AKT1 (Homo sapiens, UniProt P31749)", "test": "target engagement in cells, BRET", "measurement": "pIC50", "value": 5.72}
{"SMILES": "CO[C@H]1C[C@H](O[C@@H]2/C(C)=C/C[C@@H]3C[C@@H](C[C@]4(CC[C@H](C)[C@@H](C5CCCCC5)O4)O3)OC(=O)[C@@H]3C=C(C)/C(=N/O)[C@H]4OC/C(=C\\C=C\\[C@@H]2C)[C@]43O)O[C@@H](C)[C@@H]1O", "target or system": "Plasmodium berghei", "system": "Huh-7, GFP-expressing", "setting": "10 µM, 24 h, liver stage", "measurement": "inhibition", "value": "57.4%"}
{"SMILES": "C[C@@H]1CN(c2cc(-c3nn(C)c4ccc(OC5(C)CC5)cc34)ncn2)C[C@H](C)O1", "target or system": "pknB", "test": "cell-free assay, competition with immobilised ligand", "setting": "1 µM", "measurement": "remaining binding", "value": "100%"}
{"SMILES": "CN1CCC[C@H]1c1cccnc1", "target or system": "Plasmodium berghei", "system": "Huh-7, GFP-expressing", "setting": "10 µM, 24 h, liver stage", "measurement": "inhibition", "value": "7.76%"}
{"SMILES": "O=c1nc(-c2ccccn2)sc2ccccc12", "target or system": "pknB", "test": "cell-free assay, competition with immobilised ligand", "setting": "1 µM", "measurement": "remaining binding", "value": "88%"}
{"note": "For quick reference, copied from above (block 2):"}
{"Structure (SMILES)": "CC(Cc1ccncc1)NCc1ccc(OCC(=O)N2CCOCC2)cc1 (stereo not drawn)", "pIC50": 4.95}
